Published values pooled from the literature.
Each numbered part is a random draw from the data of one study; scales do not carry over between parts. “And” joins repeats or separate records; there may be more than shown.
UniProt Q9Y4K4, sequence (whole entry, looked up): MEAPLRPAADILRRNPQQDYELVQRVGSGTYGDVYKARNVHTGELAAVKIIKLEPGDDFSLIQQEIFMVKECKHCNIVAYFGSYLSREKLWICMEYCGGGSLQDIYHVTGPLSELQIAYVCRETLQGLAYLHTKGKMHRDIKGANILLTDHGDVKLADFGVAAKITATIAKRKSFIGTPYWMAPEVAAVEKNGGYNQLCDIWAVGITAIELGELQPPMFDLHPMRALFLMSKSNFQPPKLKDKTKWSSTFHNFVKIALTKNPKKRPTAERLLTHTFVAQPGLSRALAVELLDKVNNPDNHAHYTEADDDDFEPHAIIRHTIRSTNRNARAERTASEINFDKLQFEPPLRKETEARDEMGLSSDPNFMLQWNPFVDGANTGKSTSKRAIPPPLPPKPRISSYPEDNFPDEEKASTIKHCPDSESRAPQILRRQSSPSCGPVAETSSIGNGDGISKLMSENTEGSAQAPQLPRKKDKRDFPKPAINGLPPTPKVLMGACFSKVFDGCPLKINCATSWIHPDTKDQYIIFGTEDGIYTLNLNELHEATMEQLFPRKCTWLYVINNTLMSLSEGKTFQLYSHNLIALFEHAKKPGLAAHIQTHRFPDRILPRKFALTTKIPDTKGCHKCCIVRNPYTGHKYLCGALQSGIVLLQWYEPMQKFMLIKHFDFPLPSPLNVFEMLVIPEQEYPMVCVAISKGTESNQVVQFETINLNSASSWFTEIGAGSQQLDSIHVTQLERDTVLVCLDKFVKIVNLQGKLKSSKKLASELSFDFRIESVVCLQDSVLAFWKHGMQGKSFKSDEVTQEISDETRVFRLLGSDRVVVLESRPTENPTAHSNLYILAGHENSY

Block 1 — cell line: mouse MPNST tumor cells; technique: high-content immunofluorescence imaging; item: nuclear SOX9; tested at: 10 µM; time: 12 h; notes: mean of 2 replicates; reference: DMSO control; reading: higher = more nuclear SOX9
For `CC(C)(C)Nc1nc(Nc2ccc(C(N)=O)cc2)cc(N)c1C#N`, “nuclear SOX9 intensity” read 153 % of DMSO.
Under “nuclear SOX9 intensity”, `COCCOCOc1cc2ccc(-c3ccc(C(=O)O)cc3)cc2cc1C12CC3CC(CC(C3)C1)C2` is recorded as 113 % of DMSO.
`CCOC(=O)c1cc2ccc(O)cc2oc1=O` — result for “nuclear SOX9 intensity”: 94.1 % of DMSO.
`CCCn1c(=O)c2nc(C34CC5CC(CC3C5)C4)[nH]c2n(CCC)c1=O`: “nuclear SOX9 intensity” 114 % of DMSO.
Under “nuclear SOX9 intensity”, `CC1Cc2ccccc2N1NC(=O)c1ccc(Cl)c(S(N)(=O)=O)c1` (stereo not drawn) is recorded as 127 % of DMSO.
`CCC(=O)O[C@]1(C(=O)CCl)[C@@H](C)C[C@H]2[C@@H]3CCC4=CC(=O)C=C[C@]4(C)[C@@]3(F)[C@@H](O)C[C@@]21C` — result for “nuclear SOX9 intensity”: 75.9 % of DMSO.
`CC(C)(C)NCC(O)COc1cccc2c1CC(O)C(O)C2` (stereo not drawn) — result for “nuclear SOX9 intensity”: 111 % of DMSO.
`NC[C@H]1CC[C@H](C(=O)O)CC1` — result for “nuclear SOX9 intensity”: 106 % of DMSO and 105 % of DMSO.

Block 2 — organism: Sarcocystis neurona; read-out: parasite growth; tested at: 10 µM; time: 96 h
`CN(C)CCOc1ccc(/C(=C(/CCCl)c2ccccc2)c2ccccc2)cc1` has an inhibition of -15.9%.
For `O=C1C(CC[S+]([O-])c2ccccc2)C(=O)N(c2ccccc2)N1c1ccccc1` (stereo not drawn), the inhibition was -16.4%.
`COc1ccc(-c2oc3c(CC=C(C)C)c(O[C@@H]4O[C@H](CO)[C@@H](O)[C@H](O)[C@H]4O)cc(O)c3c(=O)c2O[C@@H]2O[C@@H](C)[C@H](O)[C@@H](O)[C@H]2O)cc1` gave an inhibition of -7.7%.
`CCCCNC(=O)NS(=O)(=O)c1ccc(C)cc1` gave an inhibition of -18.1%.
For `COc1c2occc2cc2ccc(=O)oc12`, the inhibition was -12.5%.
`CC1CNc2c(cccc2S(=O)(=O)N[C@@H](CCCNC(=N)N)C(=O)N2CC[C@@H](C)C[C@@H]2C(=O)O)C1` (stereo partly drawn) gave an inhibition of -5.7%.
`CN(C)CC/C=C1/c2ccccc2COc2ccc(CC(=O)O)cc21` has an inhibition of -2.9%.
The inhibition of `C[C@H]1c2cccc(O)c2C(=O)C2=C(O)[C@]3(O)C(=O)C(C(N)=O)=C(O)[C@@H](N(C)C)[C@@H]3[C@@H](O)[C@@H]21` is reported as -12.6%.

Mixed results
`Cn1cncc1[C@](O)(COc1ccc(C#N)cc1-c1ccc(OC(F)(F)F)cc1)c1ccc(C#N)cc1` has a remaining binding of 100% (MAP4K5 (Homo sapiens, UniProt Q9Y4K4); cell-free assay, competition with immobilised ligand; 1 µM).
Under “patients with treatment-related adverse events”, `CC(C)n1cnc(-c2ccc(F)cc2)c1-c1ncc(C(=O)Nc2ccc(N3CCN(C)CC3)cc2)[nH]1` is recorded as 45.5% (phase 2a clinical trial; patients with idiopathic pulmonary fibrosis; 30 mg once daily, added: standard of care).

A few entries again (block 1):
`CCCn1c(=O)c2nc(C34CC5CC(CC3C5)C4)[nH]c2n(CCC)c1=O`: “nuclear SOX9 intensity” 114 % of DMSO.
Under “nuclear SOX9 intensity”, `CC1Cc2ccccc2N1NC(=O)c1ccc(Cl)c(S(N)(=O)=O)c1` (stereo not drawn) is recorded as 127 % of DMSO.
`CCC(=O)O[C@]1(C(=O)CCl)[C@@H](C)C[C@H]2[C@@H]3CCC4=CC(=O)C=C[C@]4(C)[C@@]3(F)[C@@H](O)C[C@@]21C` — result for “nuclear SOX9 intensity”: 75.9 % of DMSO.
